Measurements collected from several papers.
A part holds a random share of what one study measured.
Sequence of UniProt Q16566 (whole entry, looked up): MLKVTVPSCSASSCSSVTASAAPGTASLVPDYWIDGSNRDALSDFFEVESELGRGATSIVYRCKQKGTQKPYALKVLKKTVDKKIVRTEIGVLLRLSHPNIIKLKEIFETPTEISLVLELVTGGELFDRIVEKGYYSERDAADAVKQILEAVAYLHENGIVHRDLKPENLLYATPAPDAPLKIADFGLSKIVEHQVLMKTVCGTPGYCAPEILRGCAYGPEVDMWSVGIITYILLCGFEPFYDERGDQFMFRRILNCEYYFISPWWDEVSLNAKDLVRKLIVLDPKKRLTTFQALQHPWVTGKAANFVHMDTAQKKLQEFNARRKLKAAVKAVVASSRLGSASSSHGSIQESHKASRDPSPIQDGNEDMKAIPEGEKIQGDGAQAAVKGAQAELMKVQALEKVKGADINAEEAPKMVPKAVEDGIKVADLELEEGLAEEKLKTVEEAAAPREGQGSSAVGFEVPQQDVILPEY
Sequence of UniProt P21127 (whole entry, looked up): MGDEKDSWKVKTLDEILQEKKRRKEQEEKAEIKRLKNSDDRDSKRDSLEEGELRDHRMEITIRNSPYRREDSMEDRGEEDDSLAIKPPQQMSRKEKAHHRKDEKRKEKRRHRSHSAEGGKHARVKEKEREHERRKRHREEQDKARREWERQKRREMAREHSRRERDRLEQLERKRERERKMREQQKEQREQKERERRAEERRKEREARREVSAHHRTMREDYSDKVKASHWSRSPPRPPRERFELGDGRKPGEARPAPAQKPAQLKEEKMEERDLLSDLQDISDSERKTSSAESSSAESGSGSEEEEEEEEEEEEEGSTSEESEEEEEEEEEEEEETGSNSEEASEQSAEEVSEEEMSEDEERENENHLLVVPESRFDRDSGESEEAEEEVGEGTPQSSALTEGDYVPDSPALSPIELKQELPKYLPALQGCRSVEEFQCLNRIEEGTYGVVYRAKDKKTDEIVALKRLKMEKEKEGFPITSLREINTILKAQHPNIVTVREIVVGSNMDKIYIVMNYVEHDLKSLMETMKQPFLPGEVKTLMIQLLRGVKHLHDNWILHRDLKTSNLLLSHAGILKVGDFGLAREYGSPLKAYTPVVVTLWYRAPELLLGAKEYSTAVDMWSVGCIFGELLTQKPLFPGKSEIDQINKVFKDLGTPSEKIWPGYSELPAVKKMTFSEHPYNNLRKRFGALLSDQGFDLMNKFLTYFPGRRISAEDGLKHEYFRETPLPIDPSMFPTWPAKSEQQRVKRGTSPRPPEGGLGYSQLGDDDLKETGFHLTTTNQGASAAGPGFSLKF
Sequence of UniProt P36507 (whole entry, looked up): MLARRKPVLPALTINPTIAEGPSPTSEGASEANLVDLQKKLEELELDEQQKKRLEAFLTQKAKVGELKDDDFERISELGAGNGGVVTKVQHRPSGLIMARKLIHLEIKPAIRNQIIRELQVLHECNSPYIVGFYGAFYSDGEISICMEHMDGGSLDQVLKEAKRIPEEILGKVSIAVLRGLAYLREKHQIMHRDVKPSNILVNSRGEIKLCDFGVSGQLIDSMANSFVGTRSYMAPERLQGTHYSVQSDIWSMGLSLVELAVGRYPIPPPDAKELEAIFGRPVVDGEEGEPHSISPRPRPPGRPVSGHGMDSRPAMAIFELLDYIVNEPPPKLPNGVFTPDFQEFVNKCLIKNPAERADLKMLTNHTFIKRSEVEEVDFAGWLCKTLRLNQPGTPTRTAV
Sequence of UniProt Q9C098 (whole entry, looked up): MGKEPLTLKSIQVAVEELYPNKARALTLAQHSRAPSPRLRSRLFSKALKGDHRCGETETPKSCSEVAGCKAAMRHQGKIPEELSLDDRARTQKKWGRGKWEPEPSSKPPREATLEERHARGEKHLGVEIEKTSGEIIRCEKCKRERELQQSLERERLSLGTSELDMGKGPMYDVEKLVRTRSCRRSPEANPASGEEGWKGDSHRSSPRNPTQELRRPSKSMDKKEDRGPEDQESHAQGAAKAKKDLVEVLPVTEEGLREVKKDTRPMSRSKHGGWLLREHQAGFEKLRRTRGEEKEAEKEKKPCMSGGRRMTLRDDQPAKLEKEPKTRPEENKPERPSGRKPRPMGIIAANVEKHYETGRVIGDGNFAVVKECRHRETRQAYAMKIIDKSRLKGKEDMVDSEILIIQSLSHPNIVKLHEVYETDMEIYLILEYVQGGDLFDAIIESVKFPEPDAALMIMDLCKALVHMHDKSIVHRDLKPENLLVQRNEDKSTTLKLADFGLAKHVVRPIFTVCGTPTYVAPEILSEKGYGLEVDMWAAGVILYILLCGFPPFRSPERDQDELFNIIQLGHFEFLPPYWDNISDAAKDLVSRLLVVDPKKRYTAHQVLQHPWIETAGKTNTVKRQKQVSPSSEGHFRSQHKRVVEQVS
Sequence of UniProt Q8IWQ3 (whole entry, looked up): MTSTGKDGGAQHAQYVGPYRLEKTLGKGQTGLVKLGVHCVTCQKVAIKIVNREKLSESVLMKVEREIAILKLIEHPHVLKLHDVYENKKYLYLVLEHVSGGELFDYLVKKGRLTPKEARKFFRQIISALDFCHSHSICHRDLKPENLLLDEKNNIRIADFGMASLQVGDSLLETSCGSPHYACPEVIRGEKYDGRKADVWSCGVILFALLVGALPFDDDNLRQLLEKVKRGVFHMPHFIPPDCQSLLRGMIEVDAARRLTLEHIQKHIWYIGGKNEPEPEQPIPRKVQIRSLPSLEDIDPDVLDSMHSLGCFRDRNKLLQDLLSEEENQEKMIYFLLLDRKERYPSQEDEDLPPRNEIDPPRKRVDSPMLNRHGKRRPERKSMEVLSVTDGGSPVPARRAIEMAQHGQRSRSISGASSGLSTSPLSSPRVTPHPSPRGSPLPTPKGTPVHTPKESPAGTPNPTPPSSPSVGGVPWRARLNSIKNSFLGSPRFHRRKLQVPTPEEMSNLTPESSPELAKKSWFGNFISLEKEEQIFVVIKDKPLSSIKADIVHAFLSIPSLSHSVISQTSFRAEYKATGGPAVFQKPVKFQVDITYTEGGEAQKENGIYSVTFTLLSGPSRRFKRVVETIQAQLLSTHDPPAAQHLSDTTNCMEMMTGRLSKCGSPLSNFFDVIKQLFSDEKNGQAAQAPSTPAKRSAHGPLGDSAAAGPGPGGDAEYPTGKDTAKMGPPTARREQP

Sample 1
SMILES: C=CCc1ccc(O)c(-c2ccc(O)c(CC=C)c2)c1
Observed: chloride current
Method: whole-cell voltage clamp
Endpoint: IC50
ANO1 del476-501/R631D: Anoctamin-1 (ANO1, Homo sapiens, UniProt Q5XXA6, del476-501/R631D)
Sequence of UniProt Q5XXA6 (whole entry, unmodified, looked up): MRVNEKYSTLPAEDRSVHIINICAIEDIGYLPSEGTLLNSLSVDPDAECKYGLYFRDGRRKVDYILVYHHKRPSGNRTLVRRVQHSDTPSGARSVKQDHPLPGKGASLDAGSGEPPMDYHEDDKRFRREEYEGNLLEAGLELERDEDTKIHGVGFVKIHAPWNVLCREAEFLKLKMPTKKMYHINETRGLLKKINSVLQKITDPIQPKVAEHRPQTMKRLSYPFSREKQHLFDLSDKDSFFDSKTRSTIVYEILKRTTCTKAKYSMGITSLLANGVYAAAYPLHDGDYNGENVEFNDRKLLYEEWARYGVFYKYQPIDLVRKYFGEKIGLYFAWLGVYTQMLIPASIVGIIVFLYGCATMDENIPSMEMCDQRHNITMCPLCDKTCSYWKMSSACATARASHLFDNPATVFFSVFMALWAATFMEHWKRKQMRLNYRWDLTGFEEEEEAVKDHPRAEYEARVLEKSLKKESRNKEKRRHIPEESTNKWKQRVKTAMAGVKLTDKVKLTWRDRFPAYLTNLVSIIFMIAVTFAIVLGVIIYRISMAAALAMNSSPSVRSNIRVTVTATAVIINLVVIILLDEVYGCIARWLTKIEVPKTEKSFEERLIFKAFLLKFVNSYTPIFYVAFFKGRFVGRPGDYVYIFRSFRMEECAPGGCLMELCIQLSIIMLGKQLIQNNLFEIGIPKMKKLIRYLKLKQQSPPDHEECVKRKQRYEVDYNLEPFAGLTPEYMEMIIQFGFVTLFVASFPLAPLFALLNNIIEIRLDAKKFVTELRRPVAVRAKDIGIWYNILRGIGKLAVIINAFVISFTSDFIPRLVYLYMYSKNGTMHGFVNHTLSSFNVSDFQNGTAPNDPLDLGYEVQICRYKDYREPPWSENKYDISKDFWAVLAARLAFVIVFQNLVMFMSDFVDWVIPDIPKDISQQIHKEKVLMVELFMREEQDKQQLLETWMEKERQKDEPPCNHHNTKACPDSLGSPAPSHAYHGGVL
ANO1 del476-501/R631D; inhibitor; R605D mutant at 40 mV: 20.6 µM
ANO1 del476-501/R631D; inhibitor; R605D mutant at 20 mV: 17.3 µM
Anoctamin-1 (ANO1, Homo sapiens, UniProt Q5XXA6, del476-501/F807A); membrane voltage 60 mV: 18.6 µM
Anoctamin-1 (ANO1, Homo sapiens, UniProt Q5XXA6, del476-501/F807Y); inhibitor; mutant F781Y: 13.4 µM
Anoctamin-1 (ANO1, Homo sapiens, UniProt Q5XXA6, del476-501/F628W); inhibitor; 40 mV holding voltage: 12.2 µM
Anoctamin-1 (ANO1, Homo sapiens, UniProt Q5XXA6, del476-501/F803Y); inhibitor; 60 mV holding voltage: 11.5 µM
Anoctamin-1 (ANO1, Homo sapiens, UniProt Q5XXA6, del476-501/F623A); membrane voltage 80 mV: 8.92 µM
Anoctamin-1 (ANO1, Homo sapiens, UniProt Q5XXA6, del476-501/F807W); inhibitor; mutant F781W: 12.1 µM

Sample 2
Host: human
Sample: microsomes or S9
Concentration: 2 µM
Time: 0.5 h
Endpoint: remaining compound
Oc1ccc2c(c1)oc1c(C3=Cc4ccccc4OC3)c3c[nH]nc3nc12: 5.67%
CCn1ncc(Cl)c1-c1nc2c3cnn(C)c3ncn2n1: 99%
COc1ccc(N)cc1N1CCCCS1(=O)=O: 101%
CN(Cc1cccc2cnccc12)c1cnccn1: 32.7%
CCC1CN(C(=O)c2cc(S(=O)(=O)N3CCOCC3)cn2C)c2cc(Cl)ccc2O1 (centres unmarked): 6.86%
COC(CNC(=O)NCc1ncnn1C(C)(C)C)C(C)C (centres unmarked): > 99%
O=C(OCC(=O)c1c(-c2ccccc2)[nH]c2ccccc12)c1ccccc1NCCO: 56.6%
CC(C)CCNC(=O)N1Cc2c(sc3c2CCCC3)-n2cccc2C1c1ccccc1 (centres unmarked): < 1%
Brc1cccc(Nc2ncnc3cc4c(cc23)OC(COCc2ccccc2)CO4)c1 (centres unmarked): 0.77%
O=c1c2c3c(sc2ncn1Cc1ccc2c(c1)OCO2)CNCC3: 66.4%
COc1ccc(OC)c(NC(=O)c2cc3cccc4c3n2CC(C)S4)c1 (centres unmarked): 33.4%
CC(=O)c1cc(-c2nccn2CCn2[nH]c(=O)ccc2=O)cs1: > 99.9%

Sample 3
Target: Interleukin-1 receptor-associated kinase 1 (IRAK1, Homo sapiens, UniProt P51617)
Sequence of UniProt P51617 (whole entry, looked up): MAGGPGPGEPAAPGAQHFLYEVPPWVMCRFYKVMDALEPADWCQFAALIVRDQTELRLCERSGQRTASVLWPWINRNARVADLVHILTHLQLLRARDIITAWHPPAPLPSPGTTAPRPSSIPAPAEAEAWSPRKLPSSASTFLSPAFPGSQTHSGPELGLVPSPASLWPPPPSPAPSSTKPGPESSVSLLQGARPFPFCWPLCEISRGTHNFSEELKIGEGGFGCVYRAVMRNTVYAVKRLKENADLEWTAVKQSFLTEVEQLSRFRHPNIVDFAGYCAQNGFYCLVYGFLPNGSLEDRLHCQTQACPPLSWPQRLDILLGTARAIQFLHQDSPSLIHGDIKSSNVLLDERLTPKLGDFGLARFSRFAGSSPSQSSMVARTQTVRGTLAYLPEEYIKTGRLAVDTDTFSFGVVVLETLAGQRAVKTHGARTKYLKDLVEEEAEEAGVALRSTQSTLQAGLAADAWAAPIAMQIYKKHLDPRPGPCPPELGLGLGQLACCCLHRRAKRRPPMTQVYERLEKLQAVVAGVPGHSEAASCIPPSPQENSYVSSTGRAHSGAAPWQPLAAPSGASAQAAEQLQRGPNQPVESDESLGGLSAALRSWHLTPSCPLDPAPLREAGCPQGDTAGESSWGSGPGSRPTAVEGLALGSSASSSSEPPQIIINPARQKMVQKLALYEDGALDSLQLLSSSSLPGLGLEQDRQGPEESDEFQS
Observed: enzyme activity
Action: inhibitor
Concentration: 0.5 µM
Baseline: control
Endpoint: remaining activity
O=C(c1cc2cc(O)ccc2[nH]1)c1cc2cc(O)ccc2[nH]1: 98.1%
CCCCc1c(-c2ccc(OC)cc2)[nH]c2nccnc12: 64.3%
c1ccc2c(-c3ccncc3)c[nH]c2c1: 127%
CCCNC(=O)Nc1ccc(Oc2ncnc3cc(OC)c(OC)cc23)cc1Cl: 106%
O=Nc1c(-c2c(O)[nH]c3cc(Br)ccc23)[nH]c2ccccc12: 103%
Cc1cc(Nc2cc(N3CCN(C)CC3)nc(Sc3ccc(NC(=O)C4CC4)cc3)n2)[nH]n1: 91.5%
COc1ccc2c(c1)c(C1=C(c3c[nH]c4ccccc34)C(=O)NC1=O)cn2CCCN(C)C: 89%
O=C1Nc2ccccc2/C1=C\c1c(Cl)[nH]c2ccccc12: 89.5%
O=C1Cc2c([nH]c3ccc(Br)cc23)-c2ccccc2N1: 98.6%
O=c1cc(N2CCOCC2)oc2c(-c3ccccc3)cccc12: 104%
O=C1Nc2ccc(Br)cc2/C1=C/c1cc2c([nH]1)CCCC2: 97%
O=C1NC(=O)c2c1c1c3ccccc3[nH]c1c1[nH]c3cc(Br)ccc3c21: 81.8%
N#Cc1cnc2cnc(NCc3cccnc3)cc2c1Nc1ccc(F)c(Cl)c1: 114%
Cc1ccc(S(=O)(=O)/C=C/C#N)cc1: 103%
COc1cccc(-c2cc(=O)c3ccccc3o2)c1N: 98.8%
CN(C)S(=O)(=O)c1ccc2c(c1)/C(=C/c1cc3c([nH]1)CCCC3)C(=O)N2: 5.59%

Sample 4
SMILES: CCS(=O)(=O)c1cc2cc(C[C@@](O)(CC(C)(C)c3ccc(F)cc3C(N)=O)C(F)(F)F)[nH]c2cn1
Observed: cell-free assay
Method: competition with immobilised ligand
Concentration: 1 µM
Endpoint: remaining binding
Serine/threonine-protein kinase DCLK3 (DCLK3, Homo sapiens, UniProt Q9C098): 100%
Cyclin-dependent kinase 11B (CDK11B, Homo sapiens, UniProt P21127): 77%
Serine/threonine-protein kinase NLK (NLK, Homo sapiens, UniProt Q9UBE8): 100%
Macrophage-stimulating protein receptor (MST1R, Homo sapiens, UniProt Q04912): 85%
Serine/threonine-protein kinase N1 (PKN1, Homo sapiens, UniProt Q16512): 85%
Mast/stem cell growth factor receptor Kit (KIT, Homo sapiens, UniProt P10721, D816V): 90%
Protein kinase C epsilon type (PRKCE, Homo sapiens, UniProt Q02156): 100%
5'-AMP-activated protein kinase catalytic subunit alpha-2 (PRKAA2, Homo sapiens, UniProt P54646): 100%
Calcium/calmodulin-dependent protein kinase type 1G (CAMK1G, Homo sapiens, UniProt Q96NX5): 100%
Receptor tyrosine-protein kinase erbB-3 (ERBB3, Homo sapiens, UniProt P21860): 100%
cGMP-dependent protein kinase 1 (PRKG1, Homo sapiens, UniProt Q13976): 89%
Dual specificity mitogen-activated protein kinase kinase 1 (MAP2K1, Homo sapiens, UniProt Q02750): 68%
Phosphatidylinositol 4-kinase beta (PI4KB, Homo sapiens, UniProt Q9UBF8): 100%
Dual specificity protein kinase TTK (TTK, Homo sapiens, UniProt P33981): 78%
Dual specificity protein kinase CLK3 (CLK3, Homo sapiens, UniProt P49761): 100%
Calcium/calmodulin-dependent protein kinase type IV (CAMK4, Homo sapiens, UniProt Q16566): 100%
Serine/threonine-protein kinase B-raf (BRAF, Homo sapiens, UniProt P15056): 69%
Dual specificity mitogen-activated protein kinase kinase 2 (MAP2K2, Homo sapiens, UniProt P36507): 67%
Serine/threonine-protein kinase BRSK2 (BRSK2, Homo sapiens, UniProt Q8IWQ3): 72%
Serine/threonine-protein kinase WNK3 (WNK3, Homo sapiens, UniProt Q9BYP7): 100%

Some of these lines once more (sample 1):
ANO1 del476-501/R631D; inhibitor; R605D mutant at 20 mV: 17.3 µM
Anoctamin-1 (ANO1, Homo sapiens, UniProt Q5XXA6, del476-501/F807A); membrane voltage 60 mV: 18.6 µM
Anoctamin-1 (ANO1, Homo sapiens, UniProt Q5XXA6, del476-501/F807Y); inhibitor; mutant F781Y: 13.4 µM
Anoctamin-1 (ANO1, Homo sapiens, UniProt Q5XXA6, del476-501/F628W); inhibitor; 40 mV holding voltage: 12.2 µM
Anoctamin-1 (ANO1, Homo sapiens, UniProt Q5XXA6, del476-501/F803Y); inhibitor; 60 mV holding voltage: 11.5 µM
